Published values of several laboratories.
A part holds a random share of what one study measured. Several values in a cell are separate wells, animals, samples, runs or records.
Chain of UniProt Q8TDX7 (whole entry, looked up): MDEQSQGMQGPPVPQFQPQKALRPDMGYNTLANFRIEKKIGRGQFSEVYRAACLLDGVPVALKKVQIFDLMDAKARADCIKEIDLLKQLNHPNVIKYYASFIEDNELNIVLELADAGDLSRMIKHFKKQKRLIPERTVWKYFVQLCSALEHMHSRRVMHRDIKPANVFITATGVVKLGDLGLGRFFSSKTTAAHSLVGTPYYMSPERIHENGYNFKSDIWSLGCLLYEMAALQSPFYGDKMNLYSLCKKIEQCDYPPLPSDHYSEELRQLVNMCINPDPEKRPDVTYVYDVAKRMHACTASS
Chain of UniProt Q9BWU1 (whole entry, looked up): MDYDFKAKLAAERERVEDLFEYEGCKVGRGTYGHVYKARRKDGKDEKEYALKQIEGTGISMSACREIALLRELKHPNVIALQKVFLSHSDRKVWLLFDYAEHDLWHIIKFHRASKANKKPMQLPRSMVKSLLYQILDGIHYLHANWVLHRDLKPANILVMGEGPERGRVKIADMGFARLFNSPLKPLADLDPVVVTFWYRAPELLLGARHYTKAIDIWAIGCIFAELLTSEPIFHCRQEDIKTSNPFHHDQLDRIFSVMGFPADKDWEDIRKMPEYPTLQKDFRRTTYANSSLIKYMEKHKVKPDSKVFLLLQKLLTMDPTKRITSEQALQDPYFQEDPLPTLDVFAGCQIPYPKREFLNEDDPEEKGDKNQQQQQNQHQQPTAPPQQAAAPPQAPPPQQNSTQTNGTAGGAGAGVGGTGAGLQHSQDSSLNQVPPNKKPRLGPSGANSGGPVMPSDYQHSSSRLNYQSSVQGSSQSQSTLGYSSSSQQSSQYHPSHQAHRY
Chain of UniProt Q13705 (whole entry, looked up): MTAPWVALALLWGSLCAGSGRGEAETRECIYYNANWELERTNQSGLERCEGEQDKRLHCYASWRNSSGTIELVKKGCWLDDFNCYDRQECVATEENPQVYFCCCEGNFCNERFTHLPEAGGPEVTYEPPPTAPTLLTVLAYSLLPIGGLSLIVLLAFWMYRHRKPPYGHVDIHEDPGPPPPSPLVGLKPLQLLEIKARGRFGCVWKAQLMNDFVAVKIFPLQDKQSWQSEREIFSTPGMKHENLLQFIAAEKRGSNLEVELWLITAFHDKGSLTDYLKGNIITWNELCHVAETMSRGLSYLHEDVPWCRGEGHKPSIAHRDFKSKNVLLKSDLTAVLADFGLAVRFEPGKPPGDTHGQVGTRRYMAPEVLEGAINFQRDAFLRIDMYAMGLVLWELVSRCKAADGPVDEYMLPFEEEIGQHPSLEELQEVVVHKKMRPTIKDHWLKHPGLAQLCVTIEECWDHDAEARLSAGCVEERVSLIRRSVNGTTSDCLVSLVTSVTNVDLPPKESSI
Chain of UniProt Q8NI60 (whole entry, looked up): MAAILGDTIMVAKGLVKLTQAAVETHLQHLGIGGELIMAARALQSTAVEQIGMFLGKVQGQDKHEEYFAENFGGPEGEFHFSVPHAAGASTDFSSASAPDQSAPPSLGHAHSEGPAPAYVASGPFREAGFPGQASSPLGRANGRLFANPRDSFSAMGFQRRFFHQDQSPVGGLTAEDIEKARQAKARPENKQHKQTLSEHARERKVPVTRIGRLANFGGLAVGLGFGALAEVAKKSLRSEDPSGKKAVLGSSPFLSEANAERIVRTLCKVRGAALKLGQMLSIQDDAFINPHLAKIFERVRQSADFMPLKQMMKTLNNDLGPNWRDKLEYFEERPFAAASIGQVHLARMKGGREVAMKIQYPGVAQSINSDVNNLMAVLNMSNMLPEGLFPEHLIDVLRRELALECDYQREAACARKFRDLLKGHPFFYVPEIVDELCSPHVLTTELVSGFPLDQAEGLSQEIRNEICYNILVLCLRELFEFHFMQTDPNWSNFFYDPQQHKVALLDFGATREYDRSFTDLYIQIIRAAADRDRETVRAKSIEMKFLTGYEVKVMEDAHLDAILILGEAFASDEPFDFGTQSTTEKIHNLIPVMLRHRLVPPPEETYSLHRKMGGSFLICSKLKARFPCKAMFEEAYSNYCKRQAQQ
Chain of UniProt P28482 (whole entry, looked up): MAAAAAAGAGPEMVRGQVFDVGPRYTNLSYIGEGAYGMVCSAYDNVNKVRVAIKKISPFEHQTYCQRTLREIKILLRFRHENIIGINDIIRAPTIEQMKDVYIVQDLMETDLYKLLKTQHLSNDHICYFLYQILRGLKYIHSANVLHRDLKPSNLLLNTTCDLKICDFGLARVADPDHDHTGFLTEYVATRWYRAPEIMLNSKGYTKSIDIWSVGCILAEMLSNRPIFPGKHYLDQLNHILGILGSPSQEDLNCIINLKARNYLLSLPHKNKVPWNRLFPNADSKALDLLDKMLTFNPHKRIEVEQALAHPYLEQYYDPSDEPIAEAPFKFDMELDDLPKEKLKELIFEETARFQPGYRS

Series 1
SMILES: c1ccc2c(-c3nn4c(-c5ccncc5)nnc4s3)c[nH]c2c1
Target: 1-phosphatidylinositol 3-phosphate 5-kinase (PIKFYVE, Homo sapiens, UniProt Q9Y2I7)
Chain of UniProt Q9Y2I7 (whole entry, looked up): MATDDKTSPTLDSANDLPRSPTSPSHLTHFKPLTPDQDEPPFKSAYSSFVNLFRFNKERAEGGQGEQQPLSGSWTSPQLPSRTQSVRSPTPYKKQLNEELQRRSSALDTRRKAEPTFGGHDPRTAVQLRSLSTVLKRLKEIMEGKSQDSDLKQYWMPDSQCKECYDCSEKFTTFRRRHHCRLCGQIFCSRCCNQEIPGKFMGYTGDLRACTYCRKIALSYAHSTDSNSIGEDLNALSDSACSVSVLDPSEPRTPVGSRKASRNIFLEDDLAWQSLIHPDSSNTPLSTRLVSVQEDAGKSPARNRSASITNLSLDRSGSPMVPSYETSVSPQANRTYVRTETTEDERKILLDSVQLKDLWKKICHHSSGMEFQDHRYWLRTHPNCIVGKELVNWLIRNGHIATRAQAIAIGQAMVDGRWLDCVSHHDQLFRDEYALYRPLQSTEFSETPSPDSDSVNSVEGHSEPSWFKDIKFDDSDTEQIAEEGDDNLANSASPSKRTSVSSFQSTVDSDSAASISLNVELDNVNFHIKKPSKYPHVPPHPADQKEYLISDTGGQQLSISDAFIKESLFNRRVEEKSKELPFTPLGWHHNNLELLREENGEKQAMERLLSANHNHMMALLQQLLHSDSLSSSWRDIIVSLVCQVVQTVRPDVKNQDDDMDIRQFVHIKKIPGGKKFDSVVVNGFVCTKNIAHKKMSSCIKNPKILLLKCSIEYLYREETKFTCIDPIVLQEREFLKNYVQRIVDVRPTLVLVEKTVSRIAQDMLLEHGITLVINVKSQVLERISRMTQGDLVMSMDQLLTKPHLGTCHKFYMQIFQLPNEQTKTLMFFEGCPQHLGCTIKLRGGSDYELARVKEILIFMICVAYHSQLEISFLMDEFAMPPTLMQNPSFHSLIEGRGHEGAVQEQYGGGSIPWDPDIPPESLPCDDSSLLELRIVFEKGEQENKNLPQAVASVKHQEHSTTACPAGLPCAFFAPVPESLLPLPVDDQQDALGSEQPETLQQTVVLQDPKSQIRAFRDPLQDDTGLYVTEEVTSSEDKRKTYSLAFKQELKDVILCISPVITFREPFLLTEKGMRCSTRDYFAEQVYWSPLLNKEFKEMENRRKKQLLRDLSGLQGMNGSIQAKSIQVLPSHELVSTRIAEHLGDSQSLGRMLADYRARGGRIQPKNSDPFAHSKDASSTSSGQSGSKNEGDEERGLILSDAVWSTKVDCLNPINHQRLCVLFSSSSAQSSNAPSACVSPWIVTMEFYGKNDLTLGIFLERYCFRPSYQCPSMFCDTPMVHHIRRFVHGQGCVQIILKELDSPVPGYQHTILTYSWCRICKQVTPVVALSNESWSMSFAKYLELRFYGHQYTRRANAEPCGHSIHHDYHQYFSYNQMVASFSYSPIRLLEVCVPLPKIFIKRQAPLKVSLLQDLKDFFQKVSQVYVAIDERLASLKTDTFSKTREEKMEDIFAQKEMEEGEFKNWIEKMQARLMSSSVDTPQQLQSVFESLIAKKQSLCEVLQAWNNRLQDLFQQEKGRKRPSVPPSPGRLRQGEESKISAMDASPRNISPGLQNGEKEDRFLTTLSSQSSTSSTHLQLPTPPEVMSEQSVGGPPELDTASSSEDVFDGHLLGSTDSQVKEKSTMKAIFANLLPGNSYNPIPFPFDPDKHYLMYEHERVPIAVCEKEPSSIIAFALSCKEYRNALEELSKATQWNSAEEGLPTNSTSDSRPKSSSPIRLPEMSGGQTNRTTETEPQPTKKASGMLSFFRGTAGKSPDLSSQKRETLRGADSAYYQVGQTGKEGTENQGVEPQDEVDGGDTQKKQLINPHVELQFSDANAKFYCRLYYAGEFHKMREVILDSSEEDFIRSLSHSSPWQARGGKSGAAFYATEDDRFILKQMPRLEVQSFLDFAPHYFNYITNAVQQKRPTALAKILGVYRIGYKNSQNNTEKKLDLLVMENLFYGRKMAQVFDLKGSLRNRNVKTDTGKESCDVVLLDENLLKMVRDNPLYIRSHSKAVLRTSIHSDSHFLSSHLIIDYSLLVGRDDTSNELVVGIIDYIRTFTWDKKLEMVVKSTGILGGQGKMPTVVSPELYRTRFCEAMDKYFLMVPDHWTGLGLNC
Technique: KINOMEscan
Setting: unit not given
Reference: DMSO
1100 nM — remaining binding: 0.00357 and 0.00171.
3300 nM — remaining binding: 0.00253 and 0.00145.
It gave 0.0826 and 0.0778 for remaining binding (0.503 nM).
For 13.6 nM: remaining binding read 0.0028 and 0.00137.
The remaining binding was 0.0014 and 0.00222 (3330 nM).
It gave 0.00155 and 0.00223 for remaining binding (9900 nM).
40.7 nM — remaining binding: 0.00193 and 0.00204.
The remaining binding was 0.00229 and 0.00156 (10000 nM).

Series 2
Compound: CN1CCN(C(=O)c2ccc(NC(=O)Nc3ccc(N(C)c4ccnc(Nc5ccc(CS(C)(=O)=O)cc5)n4)cc3)cc2)CC1
Concentration: 1 µM
The remaining binding was 94% (NEK10 (Homo sapiens, UniProt Q6ZWH5); binding).
RIPK4 (Homo sapiens, UniProt P57078); binding — remaining binding: 57%.
It gave 57% for remaining binding (FGR (Homo sapiens, UniProt P09769); cell-free assay, competition with immobilised ligand).
It gave 7.3% for remaining binding (Receptor-type tyrosine-protein kinase FLT3, autoinhibited (FLT3, Homo sapiens, UniProt P36888); binding).
It gave 100% for remaining binding (GSK3A (Homo sapiens, UniProt P49840); binding).
For DSTYK (Homo sapiens, UniProt Q6XUX3); binding: remaining binding read 5.4%.
MYLK4 (Homo sapiens, UniProt Q86YV6); binding — remaining binding: 98%.
It gave 47% for remaining binding (STK24 (Homo sapiens, UniProt Q9Y6E0); binding).
CAMK1 (Homo sapiens, UniProt Q14012); binding — remaining binding: 100%.
For NEK7 (Homo sapiens, UniProt Q8TDX7); binding: remaining binding read 93%.
It gave 94% for remaining binding (ACVR2B (Homo sapiens, UniProt Q13705); binding, competition with immobilised ligand).
For RIOK2 (Homo sapiens, UniProt Q9BVS4); binding: remaining binding read 21%.

Series 3
SMILES: CCS(=O)(=O)c1cc2cc(C[C@](O)(CC(C)(C)c3ccc(F)cc3C(N)=O)C(F)(F)F)[nH]c2cn1
Concentration: 1 µM
It gave 92% for remaining binding (COQ8A (Homo sapiens, UniProt Q8NI60); cell-free assay, competition with immobilised ligand).
The remaining binding was 100% (CDK19 (Homo sapiens, UniProt Q9BWU1); competition binding).
It gave 100% for remaining binding (IKBKE (Homo sapiens, UniProt Q14164); cell-free assay, competition with immobilised ligand).
For BMPR1B (Homo sapiens, UniProt O00238); cell-free assay, competition with immobilised ligand: remaining binding read 100%.
For SBK1 (Homo sapiens, UniProt Q52WX2); cell-free assay, competition with immobilised ligand: remaining binding read 87%.
It gave 99% for remaining binding (PRKD3 (Homo sapiens, UniProt O94806); cell-free assay, competition with immobilised ligand).
The remaining binding was 100% (WNK2 (Homo sapiens, UniProt Q9Y3S1); cell-free assay, competition with immobilised ligand).
For MAP3K13 (Homo sapiens, UniProt O43283); cell-free assay, competition with immobilised ligand: remaining binding read 90%.
For ALK (Homo sapiens, UniProt Q9UM73); cell-free assay, competition with immobilised ligand: remaining binding read 100%.
For PDGFRB (Homo sapiens, UniProt P09619); cell-free assay, competition with immobilised ligand: remaining binding read 100%.
For MAPK1 (Homo sapiens, UniProt P28482); cell-free assay, competition with immobilised ligand: remaining binding read 100%.
It gave 100% for remaining binding (FLT3 (Homo sapiens, UniProt P36888, D835Y); cell-free assay, competition with immobilised ligand).
For MTOR (Homo sapiens, UniProt P42345); cell-free assay, competition with immobilised ligand: remaining binding read 77%.
For STK17B (Homo sapiens, UniProt O94768); cell-free assay, competition with immobilised ligand: remaining binding read 74%.
KIT (Homo sapiens, UniProt P10721, A829P); cell-free assay, competition with immobilised ligand — remaining binding: 89%.
The remaining binding was 100% (RET (Homo sapiens, UniProt P07949, M918T); cell-free assay, competition with immobilised ligand).

Series 4
Target: Receptor-interacting serine/threonine-protein kinase 2 (RIPK2, Homo sapiens, UniProt O43353)
Chain of UniProt O43353 (whole entry, looked up): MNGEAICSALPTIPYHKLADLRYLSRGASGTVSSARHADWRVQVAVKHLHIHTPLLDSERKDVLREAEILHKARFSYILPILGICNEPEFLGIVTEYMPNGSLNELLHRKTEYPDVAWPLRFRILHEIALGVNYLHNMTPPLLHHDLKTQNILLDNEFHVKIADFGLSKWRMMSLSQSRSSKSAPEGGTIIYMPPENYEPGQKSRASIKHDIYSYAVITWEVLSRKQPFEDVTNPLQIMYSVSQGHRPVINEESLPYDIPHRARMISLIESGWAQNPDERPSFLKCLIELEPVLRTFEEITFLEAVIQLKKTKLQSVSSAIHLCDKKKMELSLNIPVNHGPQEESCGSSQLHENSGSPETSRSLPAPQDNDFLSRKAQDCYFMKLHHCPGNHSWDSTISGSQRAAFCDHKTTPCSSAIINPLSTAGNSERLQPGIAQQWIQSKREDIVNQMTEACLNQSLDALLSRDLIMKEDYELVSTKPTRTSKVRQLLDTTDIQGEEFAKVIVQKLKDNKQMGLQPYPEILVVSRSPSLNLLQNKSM
Observed: enzyme activity
Mode: inhibitor
Concentration: 0.5 µM
Reference: control
With `Cc1nc(-c2ccccc2)c(-c2ccncc2)o1` the remaining activity was 87.4%.
`CN(C)c1ccc(C=C2C(=O)Nc3ccccc32)cc1` gave a remaining activity of 87.8%.
For `O=C1NC(=O)C(c2cn(CCCn3ccnc3)c3ccccc23)=C1Nc1ccccc1`, the remaining activity was 84.3%.
For `O=S(=O)(c1cccc2cnccc12)N1CCCNCC1`, the remaining activity was 86.4%.
`Nc1ncnc2n[nH]c(Nc3ccc(F)cc3)c12` gave a remaining activity of 68.7%.
For `COc1ccc(OC)c2c(=S)c3ccccc3[nH]c12`, the remaining activity was 108%.
`O=C1NC(=O)C(c2cn(CCCO)c3ncccc23)=C1c1cnccn1` has a remaining activity of 90.9%.
For `Cc1ccc(NC(=O)c2ccc(CN3CCN(C)CC3)cc2)cc1Nc1nc(-c2cccnc2)cs1`, the remaining activity was 108%.
The remaining activity of `O=C(O)c1ccc2c3c1cccc3c(=O)n1c3ccccc3nc21` is reported as 78.4%.
`Cn1c2ccccc2c2c3c(c4c5ccccc5n(CCC#N)c4c21)CNC3=O` gave a remaining activity of 55.1%.
The remaining activity of `N#CC(C#N)=C(N)/C(C#N)=C/c1ccc(O)cc1` is reported as 95.5%.
`COc1cc2nccc(Oc3ccc(NC(=S)NC(=O)c4ccccc4C)cc3)c2cc1OC` has a remaining activity of 89.2%.
`OCC(O)CCON=C1C(c2c(O)[nH]c3ccccc23)=Nc2ccccc21` (centres unmarked) has a remaining activity of 62.8%.
`CO[C@H]1C[C@@H]2CC[C@@H](C)[C@@](O)(O2)C(=O)C(=O)N2CCCC[C@H]2C(=O)O[C@H]([C@H](C)C[C@@H]2CC[C@@H](O)[C@H](OC)C2)CC(=O)[C@H](C)/C=C(\C)[C@@H](O)[C@@H](OC)C(=O)[C@H](C)C[C@H](C)/C=C/C=C/C=C/1C` gave a remaining activity of 90.5%.

Some of these lines once more (series 4):
For `O=C1NC(=O)C(c2cn(CCCn3ccnc3)c3ccccc23)=C1Nc1ccccc1`, the remaining activity was 84.3%.
For `O=S(=O)(c1cccc2cnccc12)N1CCCNCC1`, the remaining activity was 86.4%.
`Nc1ncnc2n[nH]c(Nc3ccc(F)cc3)c12` gave a remaining activity of 68.7%.
For `COc1ccc(OC)c2c(=S)c3ccccc3[nH]c12`, the remaining activity was 108%.
`O=C1NC(=O)C(c2cn(CCCO)c3ncccc23)=C1c1cnccn1` has a remaining activity of 90.9%.
For `Cc1ccc(NC(=O)c2ccc(CN3CCN(C)CC3)cc2)cc1Nc1nc(-c2cccnc2)cs1`, the remaining activity was 108%.
The remaining activity of `O=C(O)c1ccc2c3c1cccc3c(=O)n1c3ccccc3nc21` is reported as 78.4%.
`Cn1c2ccccc2c2c3c(c4c5ccccc5n(CCC#N)c4c21)CNC3=O` gave a remaining activity of 55.1%.
